Experimental data pooled from the literature.
Lines come from different studies, so protocols differ. ± marks the error that the study gave.
MAP4K1: Mitogen-activated protein kinase kinase kinase kinase 1 (MAP4K1, Homo sapiens, UniProt Q92918)
Sequence of UniProt Q92918 (whole entry, looked up): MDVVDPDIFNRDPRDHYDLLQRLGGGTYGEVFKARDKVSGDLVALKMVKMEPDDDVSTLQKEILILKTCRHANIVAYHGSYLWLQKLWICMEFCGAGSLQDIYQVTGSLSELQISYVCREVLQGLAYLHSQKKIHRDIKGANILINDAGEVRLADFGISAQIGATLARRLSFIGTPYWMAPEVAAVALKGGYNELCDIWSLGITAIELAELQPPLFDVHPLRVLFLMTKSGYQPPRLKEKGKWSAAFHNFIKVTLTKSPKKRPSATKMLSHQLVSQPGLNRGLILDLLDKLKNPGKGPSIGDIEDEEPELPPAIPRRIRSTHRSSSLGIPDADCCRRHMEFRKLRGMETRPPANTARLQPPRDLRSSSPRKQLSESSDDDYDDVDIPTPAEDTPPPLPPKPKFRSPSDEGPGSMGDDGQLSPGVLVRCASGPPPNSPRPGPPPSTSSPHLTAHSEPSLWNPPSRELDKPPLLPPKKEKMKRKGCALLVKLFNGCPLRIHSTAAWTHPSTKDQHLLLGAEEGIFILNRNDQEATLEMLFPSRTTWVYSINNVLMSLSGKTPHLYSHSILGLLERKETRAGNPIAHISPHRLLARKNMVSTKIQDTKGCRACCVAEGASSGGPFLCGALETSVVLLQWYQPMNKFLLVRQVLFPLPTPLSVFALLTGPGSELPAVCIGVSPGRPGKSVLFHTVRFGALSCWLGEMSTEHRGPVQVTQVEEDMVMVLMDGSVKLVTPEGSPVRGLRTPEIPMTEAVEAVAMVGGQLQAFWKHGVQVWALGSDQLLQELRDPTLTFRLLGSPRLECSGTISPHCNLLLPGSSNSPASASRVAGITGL
Astl: Astacin-like metalloendopeptidase (Astl, Mus musculus, UniProt Q6HA09)
Sequence of UniProt Q6HA09 (whole entry, looked up): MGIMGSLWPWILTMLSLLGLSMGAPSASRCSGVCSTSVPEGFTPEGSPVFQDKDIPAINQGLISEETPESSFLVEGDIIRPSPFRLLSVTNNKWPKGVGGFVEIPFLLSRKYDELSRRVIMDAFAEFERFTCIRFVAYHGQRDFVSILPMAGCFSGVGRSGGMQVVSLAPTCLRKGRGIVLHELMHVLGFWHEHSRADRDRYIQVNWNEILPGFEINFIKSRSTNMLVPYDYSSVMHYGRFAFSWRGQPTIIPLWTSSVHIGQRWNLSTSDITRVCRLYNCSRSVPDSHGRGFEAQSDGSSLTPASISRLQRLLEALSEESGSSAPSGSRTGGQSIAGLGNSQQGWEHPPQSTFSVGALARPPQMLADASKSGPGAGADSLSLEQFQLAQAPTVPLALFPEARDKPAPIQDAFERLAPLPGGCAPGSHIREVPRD
rhlR: HTH-type quorum-sensing regulator RhlR (rhlR, Pseudomonas aeruginosa, UniProt P54292)
Sequence of UniProt P54292 (whole entry, looked up): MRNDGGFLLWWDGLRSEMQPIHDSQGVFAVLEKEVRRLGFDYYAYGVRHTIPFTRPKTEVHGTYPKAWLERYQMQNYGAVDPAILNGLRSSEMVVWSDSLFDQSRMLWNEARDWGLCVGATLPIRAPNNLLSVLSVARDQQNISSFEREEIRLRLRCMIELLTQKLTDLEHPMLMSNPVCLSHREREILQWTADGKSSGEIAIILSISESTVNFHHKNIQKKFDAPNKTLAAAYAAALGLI
CDK16 with cyclin Y: Cyclin-dependent kinase 16, with cyclin Y (CDK16, Homo sapiens, UniProt Q00536)
Sequence of UniProt Q00536 (whole entry, looked up): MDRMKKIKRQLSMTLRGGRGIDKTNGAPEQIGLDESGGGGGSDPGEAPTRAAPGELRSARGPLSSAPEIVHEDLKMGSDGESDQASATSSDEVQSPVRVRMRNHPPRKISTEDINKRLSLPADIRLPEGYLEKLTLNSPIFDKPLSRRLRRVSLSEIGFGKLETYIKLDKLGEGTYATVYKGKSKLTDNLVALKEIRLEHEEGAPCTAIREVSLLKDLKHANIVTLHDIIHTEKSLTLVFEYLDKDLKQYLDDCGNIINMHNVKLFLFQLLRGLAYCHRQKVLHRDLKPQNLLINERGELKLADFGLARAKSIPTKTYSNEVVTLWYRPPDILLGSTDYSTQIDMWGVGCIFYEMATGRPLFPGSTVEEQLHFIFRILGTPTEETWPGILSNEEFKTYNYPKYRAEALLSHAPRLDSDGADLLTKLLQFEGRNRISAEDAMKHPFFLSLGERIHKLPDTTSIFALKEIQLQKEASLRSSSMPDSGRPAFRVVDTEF
FGFR4: Fibroblast growth factor receptor 4 (FGFR4, Homo sapiens, UniProt P22455)
Sequence of UniProt P22455 (whole entry, looked up): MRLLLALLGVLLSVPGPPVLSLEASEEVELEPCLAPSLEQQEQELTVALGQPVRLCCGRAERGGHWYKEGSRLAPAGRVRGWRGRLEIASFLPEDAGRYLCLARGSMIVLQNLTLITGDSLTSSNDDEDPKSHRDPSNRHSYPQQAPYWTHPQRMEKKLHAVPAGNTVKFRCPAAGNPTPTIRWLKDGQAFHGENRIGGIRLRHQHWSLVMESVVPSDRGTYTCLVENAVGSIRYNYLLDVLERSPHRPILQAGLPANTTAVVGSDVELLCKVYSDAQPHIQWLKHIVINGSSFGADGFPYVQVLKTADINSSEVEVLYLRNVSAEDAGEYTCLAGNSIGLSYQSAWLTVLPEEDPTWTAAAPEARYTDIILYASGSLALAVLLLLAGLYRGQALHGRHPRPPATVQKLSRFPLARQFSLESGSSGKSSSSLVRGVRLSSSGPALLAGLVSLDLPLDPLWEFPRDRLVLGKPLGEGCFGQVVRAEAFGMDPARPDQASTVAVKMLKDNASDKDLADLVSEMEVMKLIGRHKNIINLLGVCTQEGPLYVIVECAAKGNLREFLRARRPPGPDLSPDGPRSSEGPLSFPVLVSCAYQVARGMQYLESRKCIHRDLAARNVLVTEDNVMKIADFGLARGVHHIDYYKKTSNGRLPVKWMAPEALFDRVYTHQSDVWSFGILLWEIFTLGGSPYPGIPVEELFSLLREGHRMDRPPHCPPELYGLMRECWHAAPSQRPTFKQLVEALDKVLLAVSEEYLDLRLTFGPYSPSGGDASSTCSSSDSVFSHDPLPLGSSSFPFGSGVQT
MAP3K5: Mitogen-activated protein kinase kinase kinase 5 (MAP3K5, Homo sapiens, UniProt Q99683)
Sequence of UniProt Q99683 (whole entry, looked up): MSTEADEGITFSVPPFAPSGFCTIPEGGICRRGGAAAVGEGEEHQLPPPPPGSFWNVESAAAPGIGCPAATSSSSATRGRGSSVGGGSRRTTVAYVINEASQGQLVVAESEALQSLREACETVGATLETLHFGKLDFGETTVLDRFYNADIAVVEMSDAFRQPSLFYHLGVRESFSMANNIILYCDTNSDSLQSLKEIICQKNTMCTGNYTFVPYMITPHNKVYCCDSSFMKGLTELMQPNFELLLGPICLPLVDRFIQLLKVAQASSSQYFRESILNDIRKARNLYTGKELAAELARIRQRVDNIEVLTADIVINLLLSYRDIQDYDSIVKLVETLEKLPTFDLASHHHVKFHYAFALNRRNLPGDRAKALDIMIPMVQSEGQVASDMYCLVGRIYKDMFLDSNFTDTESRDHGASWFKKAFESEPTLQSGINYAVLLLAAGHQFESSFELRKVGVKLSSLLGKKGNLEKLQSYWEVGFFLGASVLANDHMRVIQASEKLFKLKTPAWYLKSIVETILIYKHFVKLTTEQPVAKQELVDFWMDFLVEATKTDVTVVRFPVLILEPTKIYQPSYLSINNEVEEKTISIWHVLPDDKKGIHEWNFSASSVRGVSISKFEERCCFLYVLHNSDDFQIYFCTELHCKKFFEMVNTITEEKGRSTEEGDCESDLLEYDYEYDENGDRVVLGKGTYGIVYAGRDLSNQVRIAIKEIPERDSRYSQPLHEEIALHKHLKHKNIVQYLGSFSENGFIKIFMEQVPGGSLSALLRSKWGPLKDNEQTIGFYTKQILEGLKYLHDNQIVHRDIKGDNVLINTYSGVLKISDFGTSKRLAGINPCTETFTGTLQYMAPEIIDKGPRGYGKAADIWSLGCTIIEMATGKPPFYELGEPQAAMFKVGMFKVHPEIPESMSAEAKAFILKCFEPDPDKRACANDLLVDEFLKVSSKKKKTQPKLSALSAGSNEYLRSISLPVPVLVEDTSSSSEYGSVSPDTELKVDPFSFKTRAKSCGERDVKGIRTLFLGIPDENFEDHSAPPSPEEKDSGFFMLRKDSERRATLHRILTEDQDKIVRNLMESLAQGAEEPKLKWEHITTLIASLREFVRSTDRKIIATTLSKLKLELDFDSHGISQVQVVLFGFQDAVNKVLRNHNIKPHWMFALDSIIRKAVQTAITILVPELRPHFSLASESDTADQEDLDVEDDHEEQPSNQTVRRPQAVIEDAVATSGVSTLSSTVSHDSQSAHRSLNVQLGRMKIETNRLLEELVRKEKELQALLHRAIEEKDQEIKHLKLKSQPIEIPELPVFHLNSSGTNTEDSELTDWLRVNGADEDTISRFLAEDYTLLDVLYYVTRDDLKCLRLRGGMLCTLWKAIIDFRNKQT
Sequence of UniProt P05164 (whole entry, looked up): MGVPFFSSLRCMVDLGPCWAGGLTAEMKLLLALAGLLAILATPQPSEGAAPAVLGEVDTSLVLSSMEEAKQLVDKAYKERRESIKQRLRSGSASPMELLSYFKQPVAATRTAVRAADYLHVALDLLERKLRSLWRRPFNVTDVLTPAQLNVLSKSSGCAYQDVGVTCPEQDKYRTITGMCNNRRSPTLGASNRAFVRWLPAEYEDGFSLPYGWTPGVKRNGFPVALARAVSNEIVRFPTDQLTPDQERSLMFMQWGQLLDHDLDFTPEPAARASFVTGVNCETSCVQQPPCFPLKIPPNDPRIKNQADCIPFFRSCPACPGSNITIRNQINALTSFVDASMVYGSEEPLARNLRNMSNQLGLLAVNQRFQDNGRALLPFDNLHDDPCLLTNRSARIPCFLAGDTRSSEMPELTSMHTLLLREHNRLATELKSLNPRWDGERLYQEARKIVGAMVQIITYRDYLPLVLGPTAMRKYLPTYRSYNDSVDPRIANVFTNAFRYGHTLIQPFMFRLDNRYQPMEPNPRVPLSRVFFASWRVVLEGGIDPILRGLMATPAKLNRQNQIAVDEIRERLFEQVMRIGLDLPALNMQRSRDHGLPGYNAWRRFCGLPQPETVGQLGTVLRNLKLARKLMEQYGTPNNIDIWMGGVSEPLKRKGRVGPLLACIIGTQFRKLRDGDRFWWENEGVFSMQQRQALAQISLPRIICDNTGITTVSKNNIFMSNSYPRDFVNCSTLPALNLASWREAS

SMILES = C=CC(=O)N1CCC[C@@H](n2nc(-c3ccc(Oc4ccccc4)cc3)c3c(N)ncnc32)C1; target = MAP4K1; test = kinase activity, inhibitor, HotSpot radiometric; setting = 100 nM, with: ATP 10 µM; remaining activity = 87.3 ± 0.8%
SMILES = O=C(CCN(Cc1cccnc1)Cc1ccc2c(c1)OCO2)NO; target = Astl; test = enzyme activity, inhibitor, fluorogenic; setting = 5 µM; remaining activity = 49 ± 4%
SMILES = CN(C)CC#Cc1ccc2[nH]c3c(c2c1)-c1nc(N)ncc1CCC3; target = Testis-specific serine/threonine-protein kinase 3 (TSSK3, Homo sapiens, UniProt Q96PN8); test = kinase activity, inhibitor, radiometric; setting = 1 µM, with: ATP at Km; remaining activity = 79%
SMILES = COc1cc(C#CC(=O)c2ccc(C(F)(F)F)cc2)ccc1O; target = rhlR; test = reporter gene, inhibitor, quorum sensing reporter strain; setting = 10 µM, 1.5 h; how to read = reference: DMSO; remaining activity = 67%
SMILES = COc1cc(Nc2ncc3c(n2)-c2ccc(Cl)cc2C(c2c(F)cccc2OC)=NC3)ccc1C(=O)O; target = PRKCE; test = kinase activity; setting = 1 µM; remaining activity = 99%
SMILES = C=CC(=O)N1CCC([C@@H]2CCNc3c(C(N)=O)c(-c4ccc(Oc5ccccc5)cc4)nn32)CC1; target = CDK16 with cyclin Y; test = kinase activity, inhibitor, HotSpot radiometric; setting = 100 nM, with: ATP 10 µM; remaining activity = 77.7 ± 0.4%
SMILES = C=CC(=O)N1CCC[C@@H](n2nc(-c3ccc(Oc4ccccc4)cc3)c3c(N)ncnc32)C1; target = FGFR4; setting = 0.1 µM; remaining activity = 81.5%
SMILES = CCCC(=O)C#Cc1ccc(O)c(OC)c1; target = rhlR; test = reporter gene, inhibitor, quorum sensing reporter strain; setting = 10 µM, 1.5 h; how to read = reference: DMSO; remaining activity = 76%
SMILES = O=C(NC1CCC1)c1ccc2nc(-c3cccc(NS(=O)(=O)NCCN4CCCCC4)c3)cn2c1; target = Tyrosine-protein kinase ABL1 (ABL1, Homo sapiens, UniProt P00519, E255K); test = enzyme activity; setting = 10 µM; remaining activity = 100%
SMILES = O=C(O)c1ccc(Nc2ncc3c(n2)-c2ccc(Cl)cc2C(c2c(F)cccc2F)=NC3)cc1; target = PKCζ(h); test = kinase activity; setting = 1 µM; remaining activity = 99%
SMILES = COc1cc(-c2cncc3c2CN(C)Cc2cc(N4CCNCC4)ccc2-3)cc(OC)c1OC; target = MAP3K5; test = kinase activity; setting = 1 µM, human enzyme, with: ATP 10 µM; how to read = reference: DMSO control; remaining activity = 109%
SMILES = COc1cc(C#CC(=O)C2CCCCC2)ccc1O; target = rhlR; test = reporter gene, inhibitor, quorum sensing reporter strain; setting = 10 µM, 1.5 h; how to read = reference: DMSO; remaining activity = 74%
SMILES = Nc1ncc2c(n1)-c1c([nH]c3ccc(-c4ccc(F)cc4)cc13)CCC2; target = Serine/threonine-protein kinase PAK 4 (PAK4, Homo sapiens, UniProt O96013); test = kinase activity, inhibitor, radiometric; setting = 1 µM, with: ATP at Km; remaining activity = 76%
SMILES = CC#CC(=O)N1CCC[C@H]1c1nc(-c2ccc(C(=O)Nc3ccccn3)cc2)c2c(N)nccn12; target = MAP4K1; test = kinase activity, inhibitor, HotSpot radiometric; setting = 100 nM, with: ATP 10 µM; remaining activity = 95.7 ± 2%
SMILES = Cc1cc(Nc2cc(N3CCN(C)CC3)nc(Sc3ccc(NC(=O)C4CC4)cc3)n2)[nH]n1; target = Serine/threonine-protein kinase 3 (STK3, Homo sapiens, UniProt Q13188); test = kinase activity, KinaseProfiler; setting = 0.03 µM, species human; how to read = reference: control; remaining activity = 95%
SMILES = O=C(CCN(Cc1ccncc1)Cc1ccc2c(c1)OCO2)NO; target = Astl; test = enzyme activity, inhibitor, fluorogenic; setting = 5 µM; remaining activity = 61 ± 7%
SMILES = COc1ccc(F)cc1C(=O)NCc1ccc(-c2nn([C@@H](C)C(F)(F)F)c(N)c2C(N)=O)cc1; target = CDK16 with cyclin Y; test = kinase activity, inhibitor, HotSpot radiometric; setting = 1000 nM, with: ATP at Km; remaining activity = 102.6 ± 1%
SMILES = NC/C(=C\F)COc1cccc(Cn2c(=S)[nH]c(=O)c3[nH]cnc32)c1; target = Peroxidasin homolog (PXDN, Homo sapiens, UniProt Q92626); test = Amplex UltraRed; setting = 10 µM, mean of replicates; how to read = reference: control; remaining activity = 44.2%
SMILES = COc1cc(N2CCN(C)CC2)ccc1Nc1nc(N)n(C(=S)NCc2c(Cl)cccc2Cl)n1; target = Serine/threonine-protein kinase DCLK1 (DCLK1, Homo sapiens, UniProt O15075); test = enzyme activity; setting = 10 µM; how to read = reference: control; remaining activity = 0.1%
SMILES = COc1cc(C#CC(=O)c2ccccc2Cl)ccc1O; target = rhlR; test = reporter gene, inhibitor, quorum sensing reporter strain; setting = 10 µM, 1.5 h; how to read = reference: DMSO; remaining activity = 62%
SMILES = CC(C)Oc1cc(N2CCN(C)CC2)ccc1Nc1nc(N)n(C(=O)NCc2ccccc2S(=O)(=O)C(C)C)n1; target = FGFR4; test = enzyme activity; setting = 10 µM; how to read = reference: control; remaining activity = 20%
SMILES = CC(C)OCCn1c(=S)[nH]c(=O)c2[nH]ccc21; target = Myeloperoxidase (MPO, Homo sapiens, UniProt P05164); test = chlorination activity; setting = 0.625 µM, 0.1 h, with: iodide, TMB; remaining activity = 53.6%
SMILES = COc1cc(C#C[C@H](O)CC(C)C)ccc1O; target = rhlR; test = reporter gene, inhibitor, quorum sensing reporter strain; setting = 10 µM, 1.5 h; how to read = reference: DMSO; remaining activity = 72%
SMILES = CNc1ncc2c(/C=C/C(=O)N3CCC(OC)CC3)nn(Cc3cccc(C(F)(F)F)c3)c2n1; target = NUAK family SNF1-like kinase 2 (NUAK2, Homo sapiens, UniProt Q9H093); test = kinase activity, inhibitor; setting = 1 µM; how to read = reference: untreated control; remaining activity = 105%
SMILES = Cc1cc(NC(=O)c2cccc(NC(=O)/C=C/CN(C)C)c2)ccc1Nc1nccc(-c2cccnc2)n1; target = Mitogen-activated protein kinase 8 (MAPK8, Homo sapiens, UniProt P45983); test = enzyme activity, inhibitor; setting = 0.02032 µM, 6 h, unit not given, with: GSH 10 mM pre-incubation; how to read = reference: vehicle; remaining activity = 0.936
SMILES = O=C(CCN(Cc1ccc2c(c1)OCO2)Cc1ccc(Cl)c(O)c1F)NO; target = Astl; test = enzyme activity, inhibitor, fluorogenic; setting = 5 µM; remaining activity = 14 ± 3%
SMILES = O=C(C#Cc1ccc(F)c(F)c1)c1ccccc1; target = rhlR; test = reporter gene, inhibitor, quorum sensing reporter strain; setting = 10 µM, 1.5 h; how to read = reference: DMSO; remaining activity = 59%
SMILES = O=C(CCN(Cc1ccc(Cl)cc1F)Cc1ccc(Cl)c(O)c1F)NO; target = Astl; test = enzyme activity, inhibitor, fluorogenic; setting = 0.25 µM; remaining activity = 57 ± 5%
SMILES = O=C1NC(=O)/C(=C/c2ccc(-c3ccc(F)cc3O)o2)S1; target = MAP3K5; test = enzyme activity; setting = 10 µM; remaining activity = 110%
SMILES = COc1cc(C#CC(=O)c2ccccc2C)ccc1O; target = rhlR; test = reporter gene, inhibitor, quorum sensing reporter strain; setting = 10 µM, 1.5 h; how to read = reference: DMSO; remaining activity = 64%
SMILES = CCN1CCN(Cc2ccc(NC(=O)c3ccc(C)c(/C=C/c4cnc5[nH]ccc5c4OC)c3)cc2C(F)(F)F)CC1; target = Cyclin-dependent kinase 2 homolog (CRK2, Plasmodium falciparum, UniProt P61075); test = kinase activity; setting = 1 µM; remaining activity = 100%
SMILES = COc1cc(F)ccc1-c1ncnc(Nc2cccc(C[S@](C)(=N)=O)c2)n1; target = Serine/threonine-protein kinase Sgk2 (SGK2, Homo sapiens, UniProt Q9HBY8); test = kinase activity; setting = 10 µM, with: 10 µM ATP; remaining activity = 91%
SMILES = O=C(C#Cc1ccc(F)c(F)c1)c1ccccc1Cl; target = rhlR; test = reporter gene, inhibitor, quorum sensing reporter strain; setting = 10 µM, 1.5 h; how to read = reference: DMSO; remaining activity = 63%
SMILES = COc1cc(N2CCN(C)CC2)ccc1Nc1nc(N)n(C(=O)NCc2c(Cl)cccc2Cl)n1; target = FGFR4; test = enzyme activity; setting = 10 µM; how to read = reference: control; remaining activity = 0.05%

Some of these lines once more:
SMILES = C=CC(=O)N1CCC[C@@H](n2nc(-c3ccc(Oc4ccccc4)cc3)c3c(N)ncnc32)C1; target = FGFR4; setting = 0.1 µM; remaining activity = 81.5%
SMILES = C=CC(=O)N1CCC([C@@H]2CCNc3c(C(N)=O)c(-c4ccc(Oc5ccccc5)cc4)nn32)CC1; target = CDK16 with cyclin Y; test = kinase activity, inhibitor, HotSpot radiometric; setting = 100 nM, with: ATP 10 µM; remaining activity = 77.7 ± 0.4%
SMILES = O=C(C#Cc1ccc(F)c(F)c1)c1ccccc1; target = rhlR; test = reporter gene, inhibitor, quorum sensing reporter strain; setting = 10 µM, 1.5 h; how to read = reference: DMSO; remaining activity = 59%
SMILES = COc1cc(C#CC(=O)c2ccccc2C)ccc1O; target = rhlR; test = reporter gene, inhibitor, quorum sensing reporter strain; setting = 10 µM, 1.5 h; how to read = reference: DMSO; remaining activity = 64%
SMILES = Nc1ncc2c(n1)-c1c([nH]c3ccc(-c4ccc(F)cc4)cc13)CCC2; target = Serine/threonine-protein kinase PAK 4 (PAK4, Homo sapiens, UniProt O96013); test = kinase activity, inhibitor, radiometric; setting = 1 µM, with: ATP at Km; remaining activity = 76%
